Measured values from different studies.
Parts stem from different laboratories: compare values within a part only.

Block 1 — method: Spec-seq; molecule type: double-stranded DNA, one strand shown; medium: in vitro; tested at: not given; setting: whole probe, mean of replicates; baseline: not given; reading: lower = stronger binding
Target: POU, POU domain (Salpingoeca helianthica)
Residues (chain): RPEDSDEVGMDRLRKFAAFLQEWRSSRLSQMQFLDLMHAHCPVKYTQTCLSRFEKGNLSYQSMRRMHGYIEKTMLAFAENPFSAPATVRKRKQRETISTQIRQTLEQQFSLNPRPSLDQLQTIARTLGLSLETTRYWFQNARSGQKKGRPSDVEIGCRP
| Strand | relative binding energy |
| --- | --- |
| GAGTCGTCTCGTCAGCACAGTCTAATCCGTAGAGCACTCAGGTC | 0.793 ln ratio |
| GAGTCGTCTCGTCAGCACCTCCTAATCCGTAGAGCACTCAGGTC | 0.45 ln ratio |
| GAGTCGTCTCGTCAGCACAGGATAATCCGTAGAGCACTCAGGTC | 0.601 ln ratio |
| GAGTCGTCTCGTCAGCACACAATAATCCGTAGAGCACTCAGGTC | 0.208 ln ratio |

Block 2 — method: universal PBM; molecule type: double-stranded DNA, one strand shown; medium: in vitro; tested at: not given; reading: higher = stronger binding
Target: Sal-like protein 4, full length isoform B (SALL4, Homo sapiens, UniProt Q9UJQ4-2, residues 1-616)
Setting: 8-mer, flanks averaged, mean of replicates
Construct (chain): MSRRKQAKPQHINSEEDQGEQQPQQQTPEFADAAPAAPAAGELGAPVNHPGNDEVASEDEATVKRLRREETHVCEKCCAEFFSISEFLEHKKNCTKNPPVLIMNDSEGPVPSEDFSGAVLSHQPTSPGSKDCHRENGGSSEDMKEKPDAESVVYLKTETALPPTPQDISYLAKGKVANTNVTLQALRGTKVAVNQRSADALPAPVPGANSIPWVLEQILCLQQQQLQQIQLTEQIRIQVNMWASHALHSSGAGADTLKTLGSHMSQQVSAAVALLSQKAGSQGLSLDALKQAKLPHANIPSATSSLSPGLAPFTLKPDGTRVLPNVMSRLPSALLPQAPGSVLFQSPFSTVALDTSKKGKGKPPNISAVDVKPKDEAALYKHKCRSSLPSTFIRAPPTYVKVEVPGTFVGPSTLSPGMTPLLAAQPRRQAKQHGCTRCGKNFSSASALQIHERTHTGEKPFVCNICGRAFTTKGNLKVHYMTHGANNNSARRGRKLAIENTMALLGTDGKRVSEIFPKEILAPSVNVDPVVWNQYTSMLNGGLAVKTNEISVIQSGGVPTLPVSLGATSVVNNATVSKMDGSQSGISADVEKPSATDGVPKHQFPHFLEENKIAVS
| Strand | E-score |
| --- | --- |
| AGTGTTCC | 0.06 |
| ATCGTTAA | 0.143 |
| AGTCGACC | -0.191 |
| ACGACGCC | -0.238 |
| GCGATCTA | -0.0671 |

Block 3 — method: protein binding microarray; molecule type: double-stranded DNA, one strand shown; medium: in vitro; tested at: not given; baseline: not given; reading: higher = stronger binding
Target: Histone acetyltransferase KAT6A, winged helix 1, GST fusion (KAT6A, Homo sapiens, UniProt Q92794, residues 1-85)
Setting: 8-mer, flanks averaged, mean of 2 arrays, mostly near background
Target sequence (chain): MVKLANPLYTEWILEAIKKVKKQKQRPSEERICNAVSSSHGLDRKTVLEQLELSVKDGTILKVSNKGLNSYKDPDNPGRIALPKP
| Strand | E-score |
| --- | --- |
| CGATAGCA | -0.0877 |
| AACATTGC | 0.0107 |
| CAAAGAAC | -0.17 |
| CCTGTCCC | -0.105 |

Other studies, line by line
| Molecule | target | test | system | setting | scale | quantity | value |
| --- | --- | --- | --- | --- | --- | --- | --- |
| PhoQ, residues 284 288 289 292 302 303 SIHMAM | PhoP, residues 12 14 15 18 19 FWNTL (Escherichia coli, UniProt P23836) | Sort-seq, measured: YFP reporter | E. coli | PhoQ-PhoP variant library, with: 10 µM Mg2+ | baseline: high Mg2+ state, higher = stronger signaling | fold induction | 5.99 |

Some of these lines once more (block 2):
| Strand | E-score |
| --- | --- |
| AGTCGACC | -0.191 |
